Assay results from different studies.
Lines come from different studies, so protocols differ. ± gives the spread as reported.

`CCCC[C@H](NC(=O)CNC(=O)CNC(=O)CN1CCN(CC(=O)O)CCN(CC(=O)O)CCN(CC(=O)O)CC1)C(=O)N[C@H]1CC(=O)NCCCC[C@@H](C(N)=O)NC(=O)[C@H](Cc2c[nH]c3ccccc23)NC(=O)[C@H](CCCNC(=N)N)NC(=O)[C@@H](Cc2ccccc2)NC(=O)[C@H](Cc2c[nH]cn2)NC1=O` [lutetium-177 labelled] has a tissue uptake of 0.13 ± 0.03 %ID/g (C57 mouse, female, lung; intravenous, 0.037 MBq, 24 h).
With `CCCC[C@H](NC(=O)COCCOCCNC(=O)CN1CCN(CC(=O)O)CCN(CC(=O)O)CC1)C(=O)N[C@H]1CC(=O)NCCCC[C@@H](C(N)=O)NC(=O)[C@H](Cc2c[nH]c3ccccc23)NC(=O)[C@H](CCCNC(=N)N)NC(=O)[C@@H](Cc2ccccc2)NC(=O)[C@H](Cc2c[nH]cn2)NC1=O` [copper-64 labelled] the tissue uptake was 1.95 ± 0.43 %ID/g (C57 mice, liver; intravenous, 0.37 MBq, 4 h).
`CC(C)C[C@H](NC(=O)[C@H](Cc1ccc(O)cc1)NC(=O)[C@@H](CCCNC(=N)N)NC(=O)[C@@H](CO)NC(=O)[C@H](Cc1ccccc1)NC(=O)[C@H](CC1CCCCC1)NC(=O)[C@H](CC(=O)O)NC(=O)CN1CCCN2CCN(CCCN(CC(=O)O)CC2)CC1)C(=O)N[C@@H](Cc1c[nH]c2ccccc12)C(=O)N[C@@H](CO)C(=O)O` [copper-64 labelled] gave a tissue uptake of 0.2 ± 0.1 %ID/g (female NMRI nude mice, brain; 1 h p.i.).
`N=C(N)NCCC[C@@H]1NC(=O)[C@H](CCCCNC(=O)CNC(=O)CNC(=O)CNC(=O)CC[C@H](NC(=O)CNC(=O)CNC(=O)CNC(=O)CC[C@H](NC(=O)CN2CCN(CC(=O)O)CCN(CC(=O)O)CCN(CC(=O)O)CC2)C(=O)NCC(=O)NCC(=O)NCC(=O)N[C@@H](CCC(=O)NCC(=O)NCC(=O)NCC(=O)NCCCC[C@@H]2NC(=O)[C@@H](Cc3ccccc3)NC(=O)[C@H](CC(=O)O)NC(=O)CNC(=O)[C@H](CCCNC(=N)N)NC2=O)C(=O)NCC(=O)NCC(=O)NCC(=O)NCCCC[C@@H]2NC(=O)[C@@H](Cc3ccccc3)NC(=O)[C@H](CC(=O)O)NC(=O)CNC(=O)[C@H](CCCNC(=N)N)NC2=O)C(=O)NCC(=O)NCC(=O)NCC(=O)NCCCC[C@@H]2NC(=O)[C@@H](Cc3ccccc3)NC(=O)[C@H](CC(=O)O)NC(=O)CNC(=O)[C@H](CCCNC(=N)N)NC2=O)NC(=O)[C@@H](Cc2ccccc2)NC(=O)[C@H](CC(=O)O)NC(=O)CNC1=O` [indium-111 labelled] has a tissue uptake of 1.51 ± 0.22 %ID/g (female athymic nu/nu mice, lungs; intravenous, 24 h).
The tissue uptake of `CCCC[C@H](NC(=O)CNC(=O)CNC(=O)CN1CCN(CC(=O)O)CCN(CC(=O)O)CC1)C(=O)N[C@H]1CC(=O)NCCCC[C@@H](C(N)=O)NC(=O)[C@H](Cc2c[nH]c3ccccc23)NC(=O)[C@H](CCCNC(=N)N)NC(=O)[C@@H](Cc2ccccc2)NC(=O)[C@H](Cc2c[nH]cn2)NC1=O` [technetium-99m labelled] is reported as 0.01 ± 0.01 %ID/g (C57 mouse, brain; iv, 0.037 MBq, 24 h).
With `N=C(N)NCCC[C@@H]1NC(=O)[C@H](CCCCNC(=O)CNC(=O)CNC(=O)CNC(=O)CC[C@H](NC(=O)CNC(=O)CNC(=O)CNC(=O)CN2CCN(CC(=O)O)CCN(CC(=O)O)CCN(CC(=O)O)CC2)C(=O)NCC(=O)NCC(=O)NCC(=O)NCCCC[C@@H]2NC(=O)[C@@H](Cc3ccccc3)NC(=O)[C@H](CC(=O)O)NC(=O)CNC(=O)[C@H](CCCNC(=N)N)NC2=O)NC(=O)[C@@H](Cc2ccccc2)NC(=O)[C@H](CC(=O)O)NC(=O)CNC1=O` [indium-111 labelled] the tissue uptake was 1.18 ± 0.2 %ID/g (female athymic nu/nu mice, spleen; intravenous, 111 kBq, 4 h).
`CCCC[C@H](NC(=O)CCCCCCCNC(=O)CN1CCN(CC(=O)O)CCN(CC(=O)O)CC1)C(=O)N[C@H]1CC(=O)NCCCC[C@@H](C(N)=O)NC(=O)[C@H](Cc2c[nH]c3ccccc23)NC(=O)[C@H](CCCNC(=N)N)NC(=O)[C@@H](Cc2ccccc2)NC(=O)[C@H](Cc2c[nH]cn2)NC1=O` [copper-64 labelled] gave a tissue uptake of 0.07 ± 0.05 %ID/g (C57 mice, pancreas; intravenous, 0.37 MBq, 4 h).
`N=C(N)NCCC[C@@H]1NC(=O)[C@H](CCCCNC(=O)CC[C@H](NC(=O)CC[C@H](NC(=O)CN2CCN(CC(=O)O)CCN(CC(=O)O)CCN(CC(=O)O)CC2)C(=O)N[C@@H](CCC(=O)NCCCC[C@@H]2NC(=O)[C@@H](Cc3ccccc3)NC(=O)[C@H](CC(=O)O)NC(=O)CNC(=O)[C@H](CCCNC(=N)N)NC2=O)C(=O)NCCCC[C@@H]2NC(=O)[C@@H](Cc3ccccc3)NC(=O)[C@H](CC(=O)O)NC(=O)CNC(=O)[C@H](CCCNC(=N)N)NC2=O)C(=O)NCCCC[C@@H]2NC(=O)[C@@H](Cc3ccccc3)NC(=O)[C@H](CC(=O)O)NC(=O)CNC(=O)[C@H](CCCNC(=N)N)NC2=O)NC(=O)[C@@H](Cc2ccccc2)NC(=O)[C@H](CC(=O)O)NC(=O)CNC1=O` [indium-111 labelled] has a tissue uptake of 1.4 ± 0.95 %ID/g (female athymic nu/nu mice, spleen; intravenous, 111 kBq, 4 h).
`CC(C)C[C@H](NC(=O)[C@@H](CCCCNC(=O)CCCCCNC(=O)CN1CCN(CC(=O)O)CCN(CC(=O)O)CCN(CC(=O)O)CC1)NC(=O)[C@H](Cc1ccc(O)cc1)NC(=O)[C@H](CO)NC(=O)[C@H](Cc1c[nH]c2ccccc12)NC(=O)[C@H](Cc1cnc[nH]1)NC(=O)[C@@H]1CCC(=O)N1)C(=O)N[C@@H](CCCNC(=N)N)C(=O)N1CCC[C@H]1C(=O)NCC(N)=O` [indium-111 labelled] gave a tissue uptake of 0.31 ± 0.11 %ID/g (female athymic nude mouse, spleen; intravenous, 0.037 MBq, 24 h).

Some of these lines once more:
`CC(C)C[C@H](NC(=O)[C@H](Cc1ccc(O)cc1)NC(=O)[C@@H](CCCNC(=N)N)NC(=O)[C@@H](CO)NC(=O)[C@H](Cc1ccccc1)NC(=O)[C@H](CC1CCCCC1)NC(=O)[C@H](CC(=O)O)NC(=O)CN1CCCN2CCN(CCCN(CC(=O)O)CC2)CC1)C(=O)N[C@@H](Cc1c[nH]c2ccccc12)C(=O)N[C@@H](CO)C(=O)O` [copper-64 labelled] gave a tissue uptake of 0.2 ± 0.1 %ID/g (female NMRI nude mice, brain; 1 h p.i.).
